Measured values collected from several papers.
Each line is one published result; not all experiments were run side by side. ± gives the spread as reported.

Structure (SMILES)	assay	test system	conditions	IC50
CC[C@H](C)[C@H](NC(=O)[C@H](CO)NC(=O)[C@H](CCCNC(=N)N)NC(C)=O)C(=O)N[C@H]1CSSC[C@@H](C(=O)N[C@H](C(N)=O)[C@@H](C)O)NC(=O)[C@H](CCCNC(=N)N)NC(=O)[C@H](Cc2c[nH]cn2)NC(=O)[C@H](C)NC(=O)CNC(=O)[C@H](Cc2c[nH]c3ccccc23)NC(=O)[C@H](CC(=O)O)NC(=O)[C@H](CCC(N)=O)NC(=O)[C@H](Cc2ccc(O)cc2)NC(=O)[C@H](C(C)C)NC1=O	complement activation, inhibitor, ELISA, measured: C3b	normal human serum	–	1.26 ± 0.11 µM
CCN(CC)c1ccc(/C=N/c2ccccc2F)c(O)c1	nitric oxide scavenging, sodium nitroprusside	–	–	79.4 µM
O=C(CSC1CC(=O)N(c2ccc(Br)cc2)C1=O)Nc1ccc(Cl)cc1 (centres unmarked)	CoA-CPM signal reduction, CPM fluorescence thiol	cell-free biochemical	assay interference counter-screen, added: CoA replacing acetyl-CoA	> 125 µM
CCOC(=O)C1=C(CCl)NC(=O)NC1c1cccc(Cl)c1 (centres unmarked)	nitric oxide scavenging	–	–	93.6 µM
CC#Cc1cncc(-c2ccc3c(c2)[C@@]2(N=C(C)C(N)=N2)[C@]2(CC[C@H](OC)CC2)C3)c1	brain Aβ40 reduction, PK/PD model	Dunkin-Hartley guinea pig	oral, free concentration basis	0.0009 µM
Cc1cc(C)nc(Sc2ccc3nsnc3c2[N+](=O)[O-])n1	CoA-CPM signal reduction, CPM fluorescence thiol	cell-free biochemical	assay interference counter-screen, added: CoA replacing acetyl-CoA	> 125 µM
Cc1cc(C(C)(C)C)c(O)c(C(C)(C)C)c1	ferric reducing power, FRAP	–	–	60 ± 2 µg/mL
O=C(O)c1cccnc1Nc1cccc(C(F)(F)F)c1	input conductance	vascular smooth muscle cells, guinea pig, AICA arteriole segments in situ	–	48 µM
COc1ccc(C=NC(=S)NNC(=O)Cc2ccc(Cl)cc2Cl)cc1	hydroxyl radical scavenging	–	–	35.6 ± 3.03 µM
O=C(O)/C=C/c1ccc(O)c(O)c1	ABTS radical scavenging	–	–	5.24 ± 0.9 µg/mL
CC[C@H](C)[C@H](NC(=O)[C@H](CCCNC(=N)N)NC(=O)[C@H](CCC(=O)O)NC(C)=O)C(=O)N[C@H]1CSSC[C@@H](C(=O)N[C@H](C(N)=O)[C@@H](C)O)NC(=O)[C@H](CCCNC(=N)N)NC(=O)[C@H](Cc2c[nH]cn2)NC(=O)[C@H](Cc2cccc3ccccc23)NC(=O)CNC(=O)[C@H](Cc2c[nH]c3ccccc23)NC(=O)[C@H](CC(=O)O)NC(=O)[C@H](CCC(N)=O)NC(=O)[C@H](Cc2c[nH]c3ccccc23)NC(=O)[C@H](C(C)C)NC1=O	complement activation, inhibitor, ELISA, measured: C3b	normal human serum	–	2.85 ± 0.11 µM
O=C(O)c1ccccc1Nc1cccc(C(F)(F)F)c1	input conductance	vascular smooth muscle cells, guinea pig, SMA arteriole segments in situ	–	26 µM
Brc1ccc(/C=N/N=C/c2ccc(Br)cc2)cc1	nitric oxide scavenging	–	antioxidant	953 µM
O=S1(=O)CC(c2ccccc2)c2ccccc21 (centres unmarked)	CoA-CPM signal reduction, CPM fluorescence thiol	cell-free biochemical	assay interference counter-screen, added: CoA replacing acetyl-CoA	> 125 µM
O=C(Cc1ccc(Cl)cc1Cl)NNC(=S)N=Cc1ccccc1O	iron chelation	cell-free	EDTA as standard	55.7 ± 1.52 µM
Sc1nnc(-c2ccccc2)o1	CoA-CPM signal reduction, CPM fluorescence thiol	cell-free biochemical	assay interference counter-screen, added: CoA replacing acetyl-CoA	58 ± 2 µM
O=C(Cc1ccc(Cl)cc1Cl)NNC(=S)N=Cc1ccc([N+](=O)[O-])cc1	iron chelation	cell-free	EDTA as standard	61.2 ± 2.83 µM
CC[C@H](C)[C@H](NC(=O)[C@H](CO)NC(=O)[C@H](CCCNC(=N)N)NC(C)=O)C(=O)N[C@H]1CSSC[C@@H](C(=O)N[C@H](C(N)=O)[C@@H](C)O)NC(=O)[C@H](CCCNC(=N)N)NC(=O)[C@H](Cc2c[nH]cn2)NC(=O)[C@H](C)NC(=O)CNC(=O)[C@H](Cc2c[nH]c3ccccc23)NC(=O)[C@H](CC(=O)O)NC(=O)[C@H](CCC(N)=O)NC(=O)[C@H](Cc2cccc3ccccc23)NC(=O)[C@H](C(C)C)NC1=O	complement activation, inhibitor, ELISA, measured: C5b-9	normal human serum	–	0.82 ± 0.13 µM
O=C1O[C@H]([C@@H](O)CO)C(O)=C1O	DPPH radical scavenging	methanol	1 h, added: DPPH 200 µM	7.5 µg/mL
Oc1ccc(/C=C/c2cc(O)cc(O)c2)cc1	ABTS radical scavenging	–	–	29.1 ± 0.57 µg/mL
CC1(C)CC[C@]2(C(=O)O)CC[C@]3(C)C(=CC[C@@H]4[C@@]5(C)CC[C@H](O[C@@H]6O[C@H](C(=O)O)[C@@H](O)[C@H](O)[C@H]6O)C(C)(C)[C@@H]5CC[C@]43C)[C@@H]2C1	peroxynitrite scavenging, dihydrorhodamine fluorescence	–	–	72.74 ± 0.32 µM
CC[C@H](C)[C@H](NC(C)=O)C(=O)N[C@H]1CSSC[C@@H](C(=O)N[C@H](C(N)=O)[C@@H](C)O)NC(=O)[C@H](CCCNC(=N)N)NC(=O)[C@H](Cc2c[nH]cn2)NC(=O)[C@H](Cc2cccc3ccccc23)NC(=O)CNC(=O)[C@H](Cc2c[nH]c3ccccc23)NC(=O)[C@H](CC(=O)O)NC(=O)[C@H](CCC(N)=O)NC(=O)[C@H](Cc2c[nH]c3ccccc23)NC(=O)[C@H](C(C)C)NC1=O	complement activation, inhibitor, ELISA, measured: C3b	normal human serum	–	2.27 ± 0.39 µM
Clc1ccc(/C=N/N=C/c2ccc(Cl)cc2)cc1	ferric reducing antioxidant power, FRAP	–	–	2930 µM
CC[C@H](C)[C@H](NC(=O)[C@H](CO)NC(=O)[C@H](CCCNC(=N)N)NC(C)=O)C(=O)N[C@H]1CSSC[C@@H](C(=O)N[C@H](C(N)=O)[C@@H](C)O)NC(=O)[C@H](CCCNC(=N)N)NC(=O)[C@H](Cc2c[nH]cn2)NC(=O)[C@H](Cc2cccc3ccccc23)NC(=O)CNC(=O)[C@H](Cc2c[nH]c3ccccc23)NC(=O)[C@H](CC(=O)O)NC(=O)[C@H](CCC(N)=O)NC(=O)[C@H](Cc2c[nH]c3ccccc23)NC(=O)[C@H](C(C)C)NC1=O	complement activation, inhibitor, ELISA, measured: C5b-9	normal human serum	–	1.99 ± 0.11 µM

Structure (SMILES)	assay	test system	conditions	IC50
O=[N+]([O-])c1cccc(/C=N/N=C/c2cccc([N+](=O)[O-])c2)c1	ferric reducing antioxidant power, FRAP	–	–	> 3000 µM
Cc1ccc(-c2n/c(=N\C(=O)c3ccc([N+](=O)[O-])cc3)sn2Cc2ccccc2)cc1	CoA-CPM signal reduction, CPM fluorescence thiol	cell-free biochemical	assay interference counter-screen, added: CoA replacing acetyl-CoA	> 125 µM
COc1cc(NCCCC(C)N)c2nccc(Cl)c2c1 (centres unmarked)	angiogenesis, intersomitic vessel count	zebrafish embryo	–	6.3 µM
CC(=O)N[C@@H](CC(N)=O)C(=O)N[C@@H](CCCNC(=N)N)C(=O)N[C@@H](CC(C)C)C(=O)N[C@H]1CSSC[C@@H](C(=O)N[C@H](C(N)=O)[C@@H](C)O)NC(=O)[C@H](CCCNC(=N)N)NC(=O)[C@H](Cc2c[nH]cn2)NC(=O)[C@H](Cc2cccc3ccccc23)NC(=O)CNC(=O)[C@H](Cc2c[nH]c3ccccc23)NC(=O)[C@H](CC(=O)O)NC(=O)[C@H](CCC(N)=O)NC(=O)[C@H](Cc2c[nH]c3ccccc23)NC(=O)[C@H](C(C)C)NC1=O	complement activation, inhibitor, ELISA, measured: C5b-9	normal human serum	–	1.2 ± 0.06 µM
O=[N+]([O-])c1ccccc1/C=N/N=C/c1ccccc1[N+](=O)[O-]	ferric reducing antioxidant power, FRAP	–	–	> 3000 µM
Cc1c(CN2CCN(C(=O)[C@H](C)O)CC2)sc2c(N3CCOCC3)nc(-c3cnc(N)nc3)nc12	Akt phosphorylation	cancer patients, Angiosarcoma primary tumour, plasma	–	0.0056 µg/mL
CCOC(=O)C1=C(CCl)NC(=O)NC1c1ccccc1 (centres unmarked)	nitric oxide scavenging	–	–	226 µM
CC(=O)N[C@@H](CC(N)=O)C(=O)N[C@@H](CC(N)=O)C(=O)N[C@@H](CC(C)C)C(=O)N[C@H]1CSSC[C@@H](C(=O)N[C@H](C(N)=O)[C@@H](C)O)NC(=O)[C@H](CCCNC(=N)N)NC(=O)[C@H](Cc2c[nH]cn2)NC(=O)[C@H](Cc2cccc3ccccc23)NC(=O)CNC(=O)[C@H](Cc2c[nH]c3ccccc23)NC(=O)[C@H](CC(=O)O)NC(=O)[C@H](CCC(N)=O)NC(=O)[C@H](Cc2cccc3ccccc23)NC(=O)[C@H](C(C)C)NC1=O	complement activation, inhibitor, ELISA, measured: C5b-9	normal human serum	–	2.4 ± 0.25 µM
CC(=O)Oc1ccccc1C(=O)O	platelet aggregation, inhibitor	platelets	added: arachidonic acid 1 mmol/L	160 ± 20 µM
COc1cccc(/C=N/N=C/c2cccc(OC)c2)c1	ferric reducing antioxidant power, FRAP	–	–	> 3000 µM
CC(C)(C(=O)O)c1cc(=O)oc2cc(O)ccc12	DPPH radical scavenging	–	–	56 µM
O=C(O)c1cc(O)c(O)c(O)c1	cholesterol micellization	artificial micelles	–	9.4 ± 3.81 µM
CCOC(=O)C1=C(CSC2=NCCS2)NC(=O)NC1c1cccc(C)c1 (centres unmarked)	nitric oxide scavenging	–	–	117 µM
CN1CC(Oc2cnc(C#N)cc2-c2ccn3nc(NC(=O)C4CC4)cc3c2)C1	TNF release	mouse whole blood	added: LPS 150 ng/mL	0.67 µM
COc1cc(/C=N/N=C/c2cc(OC)c(OC)c(OC)c2)cc(OC)c1OC	nitric oxide scavenging	–	antioxidant	378 µM
O=S1(=O)C=C(N2CCCCC2)c2ccccc21	CoA-CPM signal reduction, CPM fluorescence thiol	cell-free biochemical	assay interference counter-screen, added: CoA replacing acetyl-CoA	> 125 µM
CCN(CC)c1ccc(/C=N/c2ccccc2Br)c(O)c1	ferric reducing power, FRAP	–	–	> 400 µM
O=S(=O)(c1ccc(Br)c2nsnc12)N1CCC(Cc2ccccc2)CC1	CoA-CPM signal reduction, CPM fluorescence thiol	cell-free biochemical	assay interference counter-screen, added: CoA replacing acetyl-CoA	> 125 µM
CCOC(=O)C1=C(CCl)NC(=O)NC1c1cccc(C)c1 (centres unmarked)	nitric oxide scavenging	–	–	210 µM
FC(F)(F)c1ccccc1/C=N/N=C/c1ccccc1C(F)(F)F	ferric reducing antioxidant power, FRAP	–	–	1070 µM
O=C(Cc1ccc(Cl)cc1Cl)NNC(=S)N=Cc1ccccc1Cl	iron chelation	cell-free	EDTA as standard	33 ± 1.67 µM
O=C(Nc1ccccc1Cl)N1CCCN(c2nc(-c3ccccc3)ns2)CC1	CoA-CPM signal reduction, CPM fluorescence thiol	cell-free biochemical	assay interference counter-screen, added: CoA replacing acetyl-CoA	> 125 µM
CC[C@H](C)[C@H](NC(C)=O)C(=O)N[C@H]1CSSC[C@@H](C(=O)N[C@H](C(N)=O)[C@@H](C)O)NC(=O)[C@H](CCCNC(=N)N)NC(=O)[C@H](Cc2c[nH]cn2)NC(=O)[C@](C)(CC)NC(=O)CNC(=O)[C@H](Cc2c[nH]c3ccccc23)NC(=O)[C@H](CC(=O)O)NC(=O)[C@H](CCC(N)=O)NC(=O)[C@H](Cc2c[nH]c3ccccc23)NC(=O)[C@H](C(C)C)NC1=O	complement activation, inhibitor, ELISA, measured: C3b	normal human serum	–	0.45 ± 0.14 µM

Excerpt of the above:
Structure (SMILES)	assay	test system	conditions	IC50
CC(=O)N[C@@H](CC(N)=O)C(=O)N[C@@H](CC(N)=O)C(=O)N[C@@H](CC(C)C)C(=O)N[C@H]1CSSC[C@@H](C(=O)N[C@H](C(N)=O)[C@@H](C)O)NC(=O)[C@H](CCCNC(=N)N)NC(=O)[C@H](Cc2c[nH]cn2)NC(=O)[C@H](Cc2cccc3ccccc23)NC(=O)CNC(=O)[C@H](Cc2c[nH]c3ccccc23)NC(=O)[C@H](CC(=O)O)NC(=O)[C@H](CCC(N)=O)NC(=O)[C@H](Cc2cccc3ccccc23)NC(=O)[C@H](C(C)C)NC1=O	complement activation, inhibitor, ELISA, measured: C5b-9	normal human serum	–	2.4 ± 0.25 µM
Cc1ccc(-c2n/c(=N\C(=O)c3ccc([N+](=O)[O-])cc3)sn2Cc2ccccc2)cc1	CoA-CPM signal reduction, CPM fluorescence thiol	cell-free biochemical	assay interference counter-screen, added: CoA replacing acetyl-CoA	> 125 µM
O=C(O)/C=C/c1ccc(O)c(O)c1	ABTS radical scavenging	–	–	5.24 ± 0.9 µg/mL
